# Assay results of several laboratories.
# Each line is one published result; not all experiments were run side by side. Numbers after ± are the reported error.
Structure (SMILES),test,system,conditions,how to read,quantity,result
Cc1ccc2c(n1)c(-c1cccc(S(C)(=O)=O)c1)c(C)n2C/C(F)=C/CN,,"healthy male volunteers, plasma","oral, 200 mg, day 1, multiple ascending dose",,terminal half-life,29.5 to 34 h
Cc1ccc(/C=C/C(=O)O)cc1-c1cc2c(cc1C)C(C)(C)CCC2(C)C,,"Sprague-Dawley rat, male, plasma","oral, 100 mg/kg, 1 h, sesame oil vehicle",,HDL level,79 ± 13.2 mg/dL
COc1ccc(C)cc1NC(=O)OC1CC2CCCC(C1)N2Cc1ccc(CC[18F])cc1 (centres unmarked),,"BALB/c mice, EMT6 tumour",5 min,baseline: tumour over fat,tumour to tissue ratio,0.65
c1ccc(C2(CCNC3CCC4(SCCS4)c4ccccc43)CCOC3(CCCC3)C2)nc1 (centres unmarked),,"rats, brain","intravenous, dose not given, 0.25 h",,concentration,403 ng/g
CC(C)(O)c1ccccc1CC[C@H](c1cccc(/C=C/c2ccc3ccc(Cl)cc3n2)c1)[S+]([O-])CC1(CC(=O)O)CC1 (some centres unmarked),,human liver mitochondrial preparation,"1 µM, 30 min, 0.5 mg/mL protein",,percent metabolized,0%
C[C@@H](O)[C@@H]1NC(=O)[C@H](CCCCN)NC(=O)CCC(=O)NCCCC[C@@H](C(=O)NCC(=O)NCC(=O)N[C@@H](Cc2ccc(O)cc2)C(=O)NCC(=O)N[C@@H](CCCNC(=N)N)C(=O)N[C@@H](CCCCN)C(=O)N[C@@H](CCCCN)C(=O)N[C@@H](CCCNC(=N)N)C(=O)N[C@@H](CCCNC(=N)N)C(=O)N[C@@H](CCC(N)=O)C(=O)N[C@@H](CCCNC(=N)N)C(=O)N[C@@H](CCCNC(=N)N)C(=O)N[C@@H](CCCNC(=N)N)C(N)=O)NC(=O)[C@H](CCCCN)NC(=O)[C@H](CCC(=O)O)NC(=O)[C@H](CC(=O)O)NC(=O)CNC1=O,,PBS,"up to 24 h, pH 7.4, 80 °C",,HPLC purity,100%
[2H]C([2H])([2H])C([2H])([2H])C([2H])([2H])OC(C(=O)OC1CCNCC1)(c1ccccc1)c1ccccc1,measured: acne,healthy Japanese male,"oral, 12 mg, 16 days, multiple ascending dose",,adverse drug reactions,0%
O=P1(NCCCl)NCCCO1 (centres unmarked),,"rat, plasma","intravenous, 10 mg/kg CP, added: ketoconazole 10 mg/kg oral 50 min before",,Tmax,2.17 ± 0.931 h
CC[C@H](C)C(=O)N1CCC(NC(=O)Nc2ccc(OC(F)(F)F)c(F)c2)CC1,,healthy volunteers,"oral, 24 mg single dose, 14 (unit not given)",,subjects with moderate TEAE,0%
CC(=CCC(O)C(C)=Cc1csc(C)n1)CC=CC(C)C(O)C(C)C(=O)C(C)(C)C(O)CC(=O)O (centres unmarked),,"human, plasma","intravenous infusion, 8.5 mg/m2 KOS-1584, 3 h infusion, cycle 1",,Cmax,2.27 ± 1.03 ng/mL
CC(C)C[C@H](NC(=O)[C@H](CCCCN)NC(=O)[C@H](CCC(=O)O)NC(=O)[C@H](C)NC(=O)[C@@H](NC(=O)[C@H](CCCCN)NC(=O)[C@H](CC(=O)O)NC(=O)[C@H](Cc1ccc(O)cc1)NC(=O)[C@H](Cc1ccccc1)NC(=O)[C@H](C)NC(=O)[C@H](CCCCN)NC(=O)[C@H](CC(C)C)NC(=O)[C@H](Cc1c[nH]c2ccccc12)NC(=O)[C@@H](N)CC(=O)O)C(C)C)C(=O)N[C@@H](CCCCN)C(=O)N[C@@H](CCC(=O)O)C(=O)N[C@@H](C)C(=O)N[C@@H](Cc1ccccc1)C(=O)N1CCC[C@H]1C(=O)N[C@@H](CC(=O)O)C(=O)N[C@@H](Cc1c[nH]c2ccccc12)C(=O)N[C@@H](C)C(=O)N[C@@H](CCCCN)C(=O)N[C@@H](C)C(=O)N[C@@H](C)C(=O)N[C@@H](Cc1ccc(O)cc1)C(=O)N[C@@H](CC(=O)O)C(=O)N[C@@H](CCCCN)C(=O)N[C@@H](C)C(=O)N[C@@H](C)C(=O)N[C@@H](CCC(=O)O)C(=O)N[C@@H](CCCCN)C(=O)N[C@@H](C)C(=O)N[C@@H](CCCCN)C(=O)N[C@@H](CCC(=O)O)C(=O)N[C@@H](C)C(=O)N[C@@H](C)C(=O)O,,"cynomolgus monkey male, plasma","intravenous infusion, 8 mg/kg every other day, day 27",,half-life,2.7 h
CC[C@H](C)[C@H](NC(=O)[C@H](CCCNC(=N)N)NC(=O)[C@H](CCCNC(=N)N)NC(=O)[C@H](CC(C)C)NC(=O)[C@@H](N)Cc1c[nH]c2ccccc12)C(=O)NCC(=O)N[C@@H](CCCCN)C(=O)NCC(=O)N[C@H](C(=O)N[C@@H](CCCCN)C(=O)N[C@H](C(=O)N[C@H](C(=O)NCC(=O)NCC(=O)N[C@@H](C)C(=O)N[C@@H](C)C(=O)N[C@@H](CC(C)C)C(=O)N[C@@H](CC(=O)O)C(=O)N[C@@H](Cc1c[nH]cn1)C(=O)N[C@@H](CC(C)C)C(N)=O)[C@@H](C)CC)[C@@H](C)CC)C(C)C,,zebrafish embryos,"1, 5, 25 µM, 4, 28, 52 hpf",,toxicity,not toxic
CCCCCCCCCCCCC(=O)O.O=C1CCCC2C3CCCN4CCCC(CN12)C34 (centres unmarked),shake-flask,simulated intestinal fluid,"pH 6.8, 37 °C",,log octanol-water partition coefficient,0.26
[3H]c1sc(C)nc1C=C(C)C1CC2C(CCCC(C)C(O)C(C)C(=O)C(C)(C)C(O)CC(=O)O1)N2CCO (centres unmarked),whole-body autoradiography,"CD2F1 mice, M109 FR− tumour periphery","intravenous, 2.2 nmol/kg, 48 h",,radioactivity in tissue,1.4 ± 0.3 µg-eq/g
COc1cc(NC(=O)C(=O)c2c(C)n(Cc3ccc(Cl)cc3)c3ccc(C)cc23)ccn1,,"male cynomolgus monkey, plasma","oral, 10 mg/kg",,CL/F,55.3 mL/min/kg
O=C(NC1CCCCC1)Oc1ccc(O)c(-c2ccccc2)c1,,rat liver S9 fraction,added: NADPH-regenerating system,,log hydrolysis rate constant,-0.94
CC(C)[C@H](NC(=O)CNC(=O)[C@H](CCC(N)=O)NC(=O)[C@H](C)N)C(=O)O,,healthy male volunteers,"intravenous, 90 mg/kg/h, 2 h, added: LPS 2 ng/kg",,subjects with unrelated AE,37.5%
CN[C@](C)(C[18F])C(=O)O,,"SCID mouse U87 xenograft, heart","60 min, post injection",,tissue uptake,3 ± 1.4 %ID/g
CCN(Cc1ccccc1)C(=O)CCc1nc(CN2CCN(C(=O)Cc3ccc(OC)c(OC)c3)CC2)no1,LC-MS,"rat, DRG","intravenous, 1 mg/kg, 15 min",,concentration,140 ± 10 ng/g
CC(C)C[C@@H](NC(=O)[C@@H](CCCCN)NC(=O)CNC(=O)CNC(=O)[C@@H]1CSSC[C@H](N)C(=O)NCC(=O)N[C@@H](CCCNC(=N)N)C(=O)N[C@@H](CCCNC(=N)N)C(=O)N[C@@H](C)C(=O)NCC(=O)NCC(=O)N[C@@H](CO)C(=O)N1)C(=O)N[C@H](C)C(=O)N[C@H](CCCCN)C(=O)N[C@H](CC(C)C)C(=O)N[C@H](C)C(=O)N[C@H](CCCCN)C(=O)N[C@H](CCCCN)C(=O)N[C@H](CC(C)C)C(=O)N[C@H](C)C(=O)N[C@H](CCCCN)C(=O)N[C@H](CC(C)C)C(=O)N[C@H](C)C(=O)N[C@H](CCCCN)C(=O)O,,"cynomolgus monkey, plasma","intravenous, 3 mg/kg, infusion",,clearance,37.7 mL/min
CC(C)[C@H](NC(=O)CNC(=O)[C@H](CCC(N)=O)NC(=O)[C@H](C)N)C(=O)O,,human,10 mg/kg single dose,,subjects with severe adverse events,0%
COC(=O)C[C@](O)(CCCC(C)(C)OC(C)=O)C(=O)O[C@@H]1C(OC)=C[C@]23CCCN2CCc2cc4c(cc2[C@H]13)OCO4,,"CD1 mouse, heart","subcutaneous, 1 mg/kg, 0.5 h",,tissue concentration,286 ng/mL
CC(=O)[O-].CN1CCCN2CCN(C)CCCN(CC1)CC2.F[P-](F)(F)(F)(F)F.[Co+2],"cyclic voltammetry, measured: second Co2+/Co3+ couple",acetonitrile,,,peak separation,208 mV
CSCC[C@@H]1NC(=O)[C@@H]2CSSC[C@H](NC(=O)[C@H](CO)NC(=O)[C@H](C)N)C(=O)N[C@@H](CCCNC(=N)N)C(=O)N[C@@H]([C@@H](C)O)C(=O)N3CCC[C@H]3C(=O)N[C@@H](CCCCN)C(=O)N[C@@H](CC(=O)O)C(=O)N[C@H]3CSSC[C@H](NC(=O)[C@H](CCCCN)NC(=O)[C@H](CCCNC(=N)N)NC(=O)[C@H](CC(N)=O)NC1=O)C(=O)N[C@@H](CCCCN)C(=O)N[C@H]1CSSC[C@H](NC(=O)[C@@H]4CCCN4C(=O)[C@H](CC(=O)O)NC(=O)[C@H](C)NC3=O)C(=O)N[C@@H](C)C(=O)N[C@@H](CCCCN)C(=O)N[C@@H](CCC(=O)O)C(=O)N[C@@H]([C@@H](C)O)C(=O)NCC(=O)N[C@@H](CSSC[C@@H](C(N)=O)NC(=O)[C@H](CCCNC(=N)N)NC(=O)[C@H](CC(N)=O)NC1=O)C(=O)N1CCC[C@H]1C(=O)N[C@@H](Cc1ccc(O)cc1)C(=O)NCC(=O)N[C@@H](CCCCN)C(=O)N2,,"DA rat, pristane-induced arthritis, serum","subcutaneous, single 0.1 mg/kg at onset, end of 21-day trial",,albumin,3.76 g/dL
CC(C)C(=O)OC1O[C@@H]2O[C@@]3(C)CC[C@H]4[C@H](C)CCC([C@H]1C)[C@@]24OO3 (some centres unmarked),,Tg(fli1:EGFP) zebrafish embryos,"1.0 µg/mL, up to 48 hpf",,dead embryos,5 count
C=Cc1c(C)c2cc3nc(c(CC(=O)O)c4[nH]c(cc5nc(cc1[nH]2)C(C)=C5CC)c(C)c4C(=O)O)[C@@H](CCC(=O)NCCCC[C@H](NC(C)=O)C(=O)N[C@@H](Cc1ccccc1)C(=O)N[C@@H](Cc1ccccc1)C(=O)N[C@H](C(=O)N[C@@H](CC(C)C)C(=O)N[C@@H](CCCCN)C(=O)N[C@@H](CO)C(=O)NCC(=O)N[C@@H](CCC(N)=O)C(=O)N[C@@H](Cc1ccc(O)cc1)C(=O)N[C@@H](C)C(=O)N[C@@H](CO)C(=O)N[C@@H](Cc1ccc(O)cc1)C(=O)N[C@@H](Cc1c[nH]cn1)C(=O)N[C@@H](CS)C(=O)N[C@@H](Cc1c[nH]c2ccccc12)C(=O)N[C@@H](CS)C(=O)N[C@@H](Cc1c[nH]c2ccccc12)C(=O)N[C@@H](CCCNC(=N)N)C(=O)N[C@@H](CC(=O)O)C(=O)N1CCC[C@H]1C(=O)NCC(=O)N[C@@H](CCCNC(=N)N)C(=O)N[C@@H](CO)C(=O)NCC(=O)NCC(=O)N[C@@H](CO)C(=O)N[C@@H](CCCCN)C(N)=O)C(C)C)[C@@H]3C,ex vivo fluorescence imaging,"mice bearing 4T1 tumours, liver","iv, 13 mg/kg",,time to peak liver fluorescence,6 h
CCCC[C@H]1C(=O)N(C)[C@@H](CCCC)C(=O)N[C@@H](CCCNC(=O)CN2CCN(CC(=O)O)CCN(CC(=O)O)CCN(CC(=O)O)CC2)C(=O)N[C@H](C(=O)NCC(N)=O)CSCC(=O)N[C@@H](Cc2ccc(O)cc2)C(=O)N(C)[C@@H](C)C(=O)N[C@@H](CC(N)=O)C(=O)N2CCC[C@H]2C(=O)N[C@@H](Cc2c[nH]cn2)C(=O)N[C@@H](CC(C)C)C(=O)N(C)CC(=O)N[C@@H](Cc2c[nH]c3ccccc23)C(=O)N[C@@H](CO)C(=O)N[C@@H](Cc2c[nH]c3ccccc23)C(=O)N1C [gallium-68 labelled],static PET,"NOD/SCID mice, CHO-hPD-L1 xenograft, CHO-hPD-L1 tumour","intravenous, 1 h post injection, after five atezolizumab treatments, added: atezolizumab 10 mg/kg",,tumour to muscle ratio,2.55 ± 0.5
CSCC[C@H](NC(=O)CNC(=O)[C@H](CC(=O)O)NC(=O)[C@@H](NC(=O)[C@@H](NC(=O)[C@@H](NC(=O)CNC(=O)[C@H](CCC(N)=O)NC(=O)[C@H](CCSC)NC(=O)[C@H](CC(=O)O)NC(=O)[C@H](C)NC(=O)[C@H](C)NC(=O)[C@@H](NC(=O)[C@H](CO)NC(=O)[C@@H](N)CC(C)C)[C@@H](C)O)C(C)C)C(C)C)[C@@H](C)O)C(=O)N[C@@H](C)C(=O)N[C@@H](CO)C(=O)NCC(=O)N[C@@H](CC(C)C)C(=O)N[C@@H](CC(=O)O)C(=O)N[C@@H](CCCCN)C(=O)N[C@@H](CC(=O)O)C(=O)N[C@@H](Cc1ccc(O)cc1)C(=O)N[C@@H](CC(C)C)C(=O)N[C@@H](CCCCN)C(=O)N1CCC[C@H]1C(=O)N[C@@H](CC(=O)O)C(=O)N[C@@H](CC(=O)O)C(=O)O,,p53-positive advanced solid tumour patients,dose not given,,probably related transient hypertension events,3
CN(C)C(CNC(=O)Nc1cc(C(F)(F)F)ccc1N1CCOCC1)c1ccncc1 (centres unmarked),,"mouse, serum","intraperitoneal, 240 mg/kg single dose",,serum globulin,1.6 g/dL

# A few entries again:
Structure (SMILES),test,system,conditions,how to read,quantity,result
c1ccc(C2(CCNC3CCC4(SCCS4)c4ccccc43)CCOC3(CCCC3)C2)nc1 (centres unmarked),,"rats, brain","intravenous, dose not given, 0.25 h",,concentration,403 ng/g
Cc1ccc(/C=C/C(=O)O)cc1-c1cc2c(cc1C)C(C)(C)CCC2(C)C,,"Sprague-Dawley rat, male, plasma","oral, 100 mg/kg, 1 h, sesame oil vehicle",,HDL level,79 ± 13.2 mg/dL
COc1cc(NC(=O)C(=O)c2c(C)n(Cc3ccc(Cl)cc3)c3ccc(C)cc23)ccn1,,"male cynomolgus monkey, plasma","oral, 10 mg/kg",,CL/F,55.3 mL/min/kg
CC(=O)[O-].CN1CCCN2CCN(C)CCCN(CC1)CC2.F[P-](F)(F)(F)(F)F.[Co+2],"cyclic voltammetry, measured: second Co2+/Co3+ couple",acetonitrile,,,peak separation,208 mV
